Measured values from different studies.
“And” joins repeats or separate records; there may be more than shown. ± marks the error that the study gave.
TDP1: Tyrosyl-DNA phosphodiesterase 1 (TDP1, Homo sapiens, UniProt Q9NUW8)
UniProt Q9NUW8, sequence (whole entry, looked up): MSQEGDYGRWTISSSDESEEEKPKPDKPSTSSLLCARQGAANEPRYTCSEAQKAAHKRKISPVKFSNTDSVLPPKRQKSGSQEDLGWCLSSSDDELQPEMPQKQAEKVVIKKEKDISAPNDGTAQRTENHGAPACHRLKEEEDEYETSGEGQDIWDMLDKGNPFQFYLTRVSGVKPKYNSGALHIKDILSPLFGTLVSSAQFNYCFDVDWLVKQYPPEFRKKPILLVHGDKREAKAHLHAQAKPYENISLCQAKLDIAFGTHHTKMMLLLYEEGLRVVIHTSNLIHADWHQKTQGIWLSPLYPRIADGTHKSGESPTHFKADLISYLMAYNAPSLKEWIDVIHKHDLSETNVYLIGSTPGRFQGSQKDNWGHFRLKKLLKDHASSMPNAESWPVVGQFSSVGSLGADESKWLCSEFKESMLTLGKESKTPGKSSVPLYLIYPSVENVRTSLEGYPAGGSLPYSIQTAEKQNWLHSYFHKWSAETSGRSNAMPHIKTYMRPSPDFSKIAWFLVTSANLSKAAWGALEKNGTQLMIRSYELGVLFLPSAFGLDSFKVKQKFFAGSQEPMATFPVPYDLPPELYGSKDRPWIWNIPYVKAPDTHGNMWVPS

| Compound | tested on | assay | system | conditions | scale | measurement | result |
| --- | --- | --- | --- | --- | --- | --- | --- |
| CN1CCC[C@]1(C)/C=C/S(=O)(=O)NC(=O)Nc1c2c(cc3c1CCC3)CCC2 |  |  | human, whole blood ex vivo | 100 mg single dose, 12 h, single ascending dose, added: LPS and ATP |  | IL-18 inhibition | 128% |
| CN(CCNCc1cc(C(=O)[O-])ccc1[O-])CCNCc1cc(C(=O)[O-])ccc1[O-].[Cl-].[Fe+3].[K+].[K+] |  | T1-weighted MRI 4.7 T | BALB/c mice | intravenous, 0.10 mmol/kg, 40 min |  | kidney contrast enhancement | decreased |
| CC(CCC(=O)NCc1ccc(C(=O)NO)cc1)C1CCC2C3C(O)CC4CC(O)CCC4(C)C3CCC12C (stereo not drawn) |  | measured: CA | PCK rat (Pkhd1 mutant), peripheral blood | oral gavage, dose not given, 5 months | baseline: total bile acids | relative abundance | 35.2% |
| COc1ccccc1C=CC(=O)Nc1ccc(-c2ccc(NC(=O)C=Cc3ccccc3OC)cc2)cc1 |  | carrageenan paw oedema | albino rat | oral, 50 mg/kg, 3 h | baseline: vehicle | inhibition | 29.2% |
| CCC(=O)N[C@@H](C)C(=O)OCC(=O)N[C@@H](C)C(=O)O |  |  | water | pH 8, 37 °C |  | chain scission rate constant | 0.029 h⁻¹ |
| COC1CN([C@H]2CC[C@H]([C@@]3(C)Oc4c(Cl)cc(C(=O)NCc5c(SC)cc(C)[nH]c5=O)c(C)c4O3)CC2)C1 |  | RNA-seq, measured: COL4A2 mouse homolog | mouse, HT-1376 xenograft, whole blood | dose not given | baseline: vehicle | log2 fold change | 0.125 |
| C=CCn1cc(C=NOCc2ccc(-c3nc4cc(-c5ccccc5)ccn4c3Nc3ccc(C(=O)O)cc3)cc2)c2ccccc21 (mixture of isomers) | TDP1 | enzyme activity, inhibitor |  | 100 µM, unpurified compound |  | inhibition | 24.3% |
| COc1ccc(C(=O)CCc2cc(C(CCc3ccc(O)cc3OC)c3ccc(O)cc3)c(O)cc2OC)cc1 (racemic) |  |  | human blood | 1 µM, added: A23187 |  | 12-HETE level | 10100 ± 4140 pg/mL |
| CC[C@H](C)[C@@H](C(=O)N[C@@H](CC(C)C)C(=O)N[C@@H](CO)C(=O)N[C@@H](CO)C(=O)N[C@H](C(=O)N[C@@H](CCC(=O)O)C(=O)N[C@H](C(=O)NCC(=O)N[C@@H](CO)C(=O)N[C@@H](CO)C(=O)N[C@H](C(=O)N1CCC[C@H]1C(N)=O)[C@@H](C)O)C(C)C)[C@@H](C)O)N(C)C(=O)[C@H](C)NC(=O)CN(C)C(=O)[C@H](Cc1ccccc1)NC(=O)[C@H](CO)NC(=O)[C@H](CO)NC(=O)[C@H](CCCNC(=N)N)NC(=O)[C@H](CCC(N)=O)NC(=O)[C@H](CC(C)C)NC(=O)[C@H](Cc1ccccc1)NC(=O)[C@H](Cc1c[nH]cn1)NC(=O)[C@H](C)NC(=O)[C@H](CC(C)C)NC(=O)[C@H](CCCNC(=N)N)NC(=O)[C@H](CCC(=O)O)NC(=O)[C@@H](NC(=O)[C@H](C)NC(=O)[C@@H]1CSSC[C@H](NC(=O)[C@H](CCCNC(=N)N)NC(=O)CC[C@H](NC(=O)CCCCCCCCCCCCCCCCCCC(=O)O)C(=O)O)C(=O)NCC(=O)N[C@@H]([C@@H](C)O)C(=O)N[C@@H](C)C(=O)N[C@@H]([C@@H](C)O)C(=O)N1)[C@@H](C)O |  |  | male Sprague-Dawley rats | subcutaneous, 30 nmol/kg single dose, 24 h | baseline: vehicle | food intake | 69.8 ± 2.8% |
| COc1ccccc1C1CC(Nc2ccc(-c3ccc(NC4=NOC(c5ccccc5OC)C4)cc3)cc2)=NO1 (stereo not drawn) |  | carrageenan paw oedema | albino rat | oral, 50 mg/kg, 3 h | baseline: vehicle | inhibition | 39.4% |
| Cc1cccc(C)c1CNc1cc(C(=O)N2CCC2)cn2c(C)c(C)nc12 |  | esophageal lesions | rat reflux esophagitis model | oral, 2 mg/kg |  | inhibition | 100% |
| CN(C)c1ccc(C=CC(=O)Nc2ccc(-c3ccc(NC(=O)C=Cc4ccc(N(C)C)cc4)cc3)cc2)cc1 |  | carrageenan paw oedema | albino rat | oral, 50 mg/kg, 3 h |  | inhibition | 15.2% |
| O=S(=O)(NCc1ccncc1)c1ccc(C2CCCCC2)cc1 |  | immunohistochemistry | CK-p25 mice female, hippocampus | ip, 0.3 mg/kg daily, 6 wk | baseline: vehicle | C1q area reduction | ~15% |
| CCCCCCCCCCCCCCCC(=O)NCCCC[C@H](N)C(=O)N[C@@H](CC(=O)O)C(=O)N[C@H](C(=O)N[C@@H](Cc1c[nH]cn1)C(=O)N[C@@H](Cc1ccccc1)C(=O)N[C@@H](CCCNC(=N)N)C(=O)N[C@H](C(=O)N[C@@H](Cc1ccccc1)C(=O)N[C@@H](CCCNC(=N)N)C(=O)N[C@@H](CO)C(=O)N[C@@H](Cc1c[nH]cn1)C(=O)N[C@@H](CO)C(=O)N[C@@H](CC(=O)O)C(=O)N[C@@H](Cc1ccc(O)cc1)C(=O)N[C@@H](CCCNC(=N)N)C(=O)N[C@@H](CCCNC(=N)N)C(=O)N[C@H](C(=O)O)[C@@H](C)CC)[C@@H](C)O)[C@@H](C)O |  |  | C57BL/6J mice, MCD diet-fed | dose not given, 3 weeks, NASH model |  | body weight | 19.9 ± 1 g |
| CC(C)C[C@H](NC(=O)CNC(=O)[C@H](CCC(N)=O)NC(=O)[C@H](CC(C)C)NC(=O)[C@H](CC(C)C)NC(=O)[C@H](CCCNC(=N)N)NC(=O)[C@H](CCC(N)=O)NC(=O)[C@H](CC(C)C)NC(=O)[C@H](CCCNC(=N)N)NC(=O)[C@H](C)NC(=O)CNC(=O)[C@H](CCC(=O)O)NC(=O)[C@H](CCCNC(=N)N)NC(=O)[C@H](CC(C)C)NC(=O)[C@H](CCCNC(=N)N)NC(=O)[C@H](CO)NC(=O)[C@H](CC(C)C)NC(=O)[C@H](CCC(=O)O)NC(=O)[C@H](CO)NC(=O)[C@@H](NC(=O)[C@H](Cc1ccccc1)NC(=O)[C@@H](NC(=O)CNC(=O)[C@H](CC(=O)O)NC(=O)C(C)(C)NC(=O)[C@@H](N)Cc1c[nH]cn1)[C@@H](C)O)[C@@H](C)O)C(=O)N[C@@H](CC(C)C)C(=O)N[C@@H](CCC(N)=O)C(=O)NCC(=O)N[C@@H](CC(C)C)C(=O)N[C@H](C(=O)NCC(=O)N[C@@H](CCCCNC(=O)COCCOCCNC(=O)COCCOCCNC(=O)CC[C@H](NC(=O)CCCCCCCCCCCCCCCCC(=O)O)C(=O)O)C(N)=O)C(C)C |  | cAMP reporter gene | CRE-Luc mice, pancreas homogenate ex vivo | sc, 300 nmol/kg, 6 h, highest dose | baseline: baseline | luciferase induction | 20 fold |
| CCC(CC)n1c(Cc2cccs2)nc2cc(C(=O)N[C@@H](CC(=O)O)c3ccccc3)ccc21 |  |  | mouse, HFpEF model (HFD plus L-NAME) | ip, 20 mg/kg/day, 2 wk |  | E/A and E/e' ratio | decreased |
| COCCOCCOCCNC(=O)Cc1cc(CC(=O)N[C@H]2C[C@H]3C(=O)Nc4cc(OCCOCCOCCOC)cc(n4)C(=O)N4CCC[C@H]4C(=O)Nc4cc(OCCOCCOCCOC)cc(n4)C(=O)N4CCC[C@H]4C(=O)Nc4cc(OCCOCCOCCOC)cc(n4)C(=O)N3C2)cc(CC(=O)N[C@H]2C[C@H]3C(=O)Nc4cc(OCCOCCOCCOC)cc(n4)C(=O)N4CCC[C@H]4C(=O)Nc4cc(OCCOCCOCCOC)cc(n4)C(=O)N4CCC[C@H]4C(=O)Nc4cc(OCCOCCOCCOC)cc(n4)C(=O)N3C2)c1 |  | anion binding, ITC | water/methanol 95 vol% (97.7 mol%) | 298 K, added: sodium sulfate |  | TΔS | 6.142 ± 0.0478 kcal/mol |
| CC(C)(C)NCC(SS(=O)(=O)O)c1ccccc1 (stereo not drawn) |  |  | Swiss Webster mice, Schistosoma mansoni-infected | 200 mg/kg single dose on day 42 post-infection, perfusion day 56 post-infection | baseline: vehicle | spleen weight decrease | 35% |
| CC[C@H](C)[C@@H](C(=O)N[C@@H](CC(C)C)C(=O)N[C@@H](CO)C(=O)N[C@@H](CO)C(=O)N[C@H](C(=O)N[C@@H](CCC(=O)O)C(=O)N[C@H](C(=O)NCC(=O)N[C@@H](CO)C(=O)N[C@@H](CO)C(=O)N[C@H](C(=O)N1C[C@H](O)C[C@H]1C(N)=O)[C@@H](C)O)C(C)C)[C@@H](C)O)N(C)C(=O)[C@H](C)NC(=O)CN(C)C(=O)[C@H](Cc1ccccc1)NC(=O)[C@H](CO)NC(=O)[C@H](CO)NC(=O)[C@H](CCCNC(=N)N)NC(=O)[C@H](CCC(N)=O)NC(=O)[C@H](CC(C)C)NC(=O)[C@H](Cc1ccccc1)NC(=O)[C@H](Cc1c[nH]cn1)NC(=O)[C@H](C)NC(=O)[C@H](CC(C)C)NC(=O)[C@H](CCCNC(=N)N)NC(=O)[C@H](CCC(=O)O)NC(=O)[C@@H](NC(=O)[C@H](C)NC(=O)[C@@H]1CSSC[C@H](NC(=O)[C@H](CCCNC(=N)N)NC(=O)CC[C@H](NC(=O)CCCCCCCCCCCCCCCCCCC(=O)O)C(=O)O)C(=O)NCC(=O)N[C@@H]([C@@H](C)O)C(=O)N[C@@H](C)C(=O)N[C@@H]([C@@H](C)O)C(=O)N1)[C@@H](C)O |  |  | male Sprague-Dawley rats | subcutaneous, 30 nmol/kg single dose, 24 h | baseline: vehicle | food intake | 74.5 ± 2.4% |
| COCC1CN(C2CCN(c3cc(OC)c(Nc4ncc(Br)c(Nc5ccc6c(c5P(C)(C)=O)OCCO6)n4)cc3C)CC2)C1 |  | RECIST 1.1 | advanced EGFR-mutant NSCLC patients | 30 mg once daily |  | objective response rate | 0% |
| CC(C)(C=NOCc1ccc(-c2nc3cc(-c4ccccc4)ccn3c2Nc2ccc(C(=O)O)cc2)cc1)Sc1ccccc1 | TDP1 | enzyme activity, inhibitor |  | 100 µM, unpurified compound |  | inhibition | 68.4% |
| CCOC(=O)C12CC(N)(C1)C2 |  |  | CD-1 mouse female | subcutaneous, 6.5 mg/mouse, 0 to 180 min | higher = stronger analgesia | tail flick latency AUC | 484 a.u. and 398 a.u. and 204 a.u. and 380 a.u. and 532 a.u. |
| COc1cc(O)ccc1CCC(c1ccc(O)cc1)c1cc2c(c(C)c1O)OC(c1ccc(O)cc1)CC2 (mixture of isomers) |  |  | human blood | 3 µM, added: A23187 |  | 15-HETE level | 190 ± 44 pg/mL |
| CC(C)=CCc1cc(C(=O)/C=C/c2ccc(O)cc2)c(O)cc1O |  | phase I metabolism, substrate | minipig liver microsomes |  |  | Vmax | 118 ± 17.1 pmol/min/mg |
